Measured values pooled from the literature.
Each numbered part is a random draw from the data of one study; scales do not carry over between parts.

Set 1 — method: protein-binding microarray; form: double-stranded DNA, one strand shown; medium: in vitro; tested at: 940 nM top; setting: 60-bp whole probe; together with: salmon DNA 0.4 mg/ml; baseline: random background probes; reading: higher = stronger binding; all sequences stand within: GCCTAGCAC … GTCTTGATTCGCTTGACGCTGCTG
Target: Interferon regulatory factor 5, full length, phosphomimetic (IRF5, Homo sapiens, UniProt Q13568-2, residues 1-514, S451D/S453D/S456D/S462D)
`TTAGGTATCGGGTTTCGGTGAGTGCTA`: “fitted relative affinity” 7.38 z-score.
`GACGGGCTGCTTATCCTGACGTGCTAG`: “fitted relative affinity” -0.44 z-score.
`TCAAAATTGTCTCTGTCACTGTGCTAG` — result for “fitted relative affinity”: 0.884 z-score.
Under “fitted relative affinity”, `TCACGTCTCCACCTGGGACTGTGCTAG` is recorded as 0.116 z-score.
For `TGTTTTTGCTTTCTTTATGCGTGCTAG`, “fitted relative affinity” read 2.23 z-score.

Set 2 — method: aptamer microarray, sandwich; form: DNA with 2'F-ANA; medium: in vitro; tested at: 200 nM; together with: Cy3 exosite-II aptamer, 400 nM; reading: higher = stronger binding; strand: GGTTGGTGTGGTTGG
Target: Prothrombin, mature alpha-thrombin (F2, Homo sapiens, UniProt P00734)
Setting: whole 15-mer aptamer, many near background
`2'F-ANA at 3 4 9 10 12 15`: “mean fluorescence intensity” 357 a.u.
`2'F-ANA at 1 2 5 8 9 10 11 13`: “mean fluorescence intensity” 67.2 a.u.
Under “mean fluorescence intensity”, `2'F-ANA at 3 4 6 7 9 10 11 15` is recorded as 242 a.u.
For `2'F-ANA at 1 2 5 8 9 10 11 12 13 14`, “mean fluorescence intensity” read 48.7 a.u.
`2'F-ANA at 2 3 4 5 6 11 12 13 14 15`: “mean fluorescence intensity” 56.1 a.u.
Under “mean fluorescence intensity”, `2'F-ANA at 1 4 7 8 9 12 13 14` is recorded as 185 a.u.
Under “mean fluorescence intensity”, `2'F-ANA at 5 6 9 10 13 14` is recorded as 141 a.u.

Set 3 — method: protein-binding microarray; form: double-stranded DNA, one strand shown; medium: in vitro; tested at: 0.8 µM; setting: whole 60-bp probe, no competitor; reading: higher = stronger binding
Target: Centromere-binding protein 1, full length, N-terminal tag (CBF1, Saccharomyces cerevisiae, UniProt P17106, residues 1-351)
Chain of UniProt P17106 (whole entry, looked up): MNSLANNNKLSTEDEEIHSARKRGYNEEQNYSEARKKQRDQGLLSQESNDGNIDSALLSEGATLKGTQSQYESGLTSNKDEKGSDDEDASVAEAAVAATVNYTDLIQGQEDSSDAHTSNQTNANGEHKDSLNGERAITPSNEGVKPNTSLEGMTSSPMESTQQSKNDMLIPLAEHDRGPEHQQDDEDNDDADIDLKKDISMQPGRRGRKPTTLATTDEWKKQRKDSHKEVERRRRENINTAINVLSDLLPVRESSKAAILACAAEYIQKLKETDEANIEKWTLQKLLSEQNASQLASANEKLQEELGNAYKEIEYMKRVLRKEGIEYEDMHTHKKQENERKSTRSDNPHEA
`CCTAACTACTATACACACGTAATATAGCTTCGTACAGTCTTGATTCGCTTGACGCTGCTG` has a fluorescence intensity of 512 a.u.
For `CCTAACTACTATATCCATCTGATATAGCTTCGTACAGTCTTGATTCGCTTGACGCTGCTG`, the fluorescence intensity was 561 a.u.
`CTATCGATTAGTATTCATGTCACTAGTATATTATTCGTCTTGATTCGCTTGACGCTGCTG` has a fluorescence intensity of 574 a.u.
`GAATTTAGTTAATCAGGTGTGAGGTGGAATGAGTAGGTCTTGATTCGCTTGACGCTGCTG` gave a fluorescence intensity of 1340 a.u.
With `GAATTGATCGCGTGTCACGTGACCAAATCGTACTAGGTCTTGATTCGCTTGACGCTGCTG` the fluorescence intensity was 49500 a.u.
The fluorescence intensity of `GAAAATCAAAAGCATCATGCGGCGGAGGATTTATAGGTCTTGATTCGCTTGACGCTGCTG` is reported as 527 a.u.

Single results of other studies
For `PhoQ, residues 284 288 289 292 302 303 TLSLKA`, the fold induction was 5.44 (PhoP, residues 12 14 15 18 19 NHFRA (Escherichia coli, UniProt P23836); Sort-seq, measured: YFP reporter; E. coli; PhoQ-PhoP variant library, together with: 10 µM Mg2+; baseline: high Mg2+ state, higher = stronger signaling).

Excerpt of the above (set 3):
The fluorescence intensity of `GAAAATCAAAAGCATCATGCGGCGGAGGATTTATAGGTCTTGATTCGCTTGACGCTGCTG` is reported as 527 a.u.
`CTATCGATTAGTATTCATGTCACTAGTATATTATTCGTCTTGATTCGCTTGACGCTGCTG` has a fluorescence intensity of 574 a.u.
For `CCTAACTACTATATCCATCTGATATAGCTTCGTACAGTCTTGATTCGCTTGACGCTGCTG`, the fluorescence intensity was 561 a.u.
